Results from different studies.
Numbered parts are unrelated; each lists some results of a single study.

Sample 1
Target: Centromere-binding protein 1, full length, N-terminal tag (CBF1, Saccharomyces cerevisiae, UniProt P17106, residues 1-351)
Chain of UniProt P17106 (whole entry, looked up): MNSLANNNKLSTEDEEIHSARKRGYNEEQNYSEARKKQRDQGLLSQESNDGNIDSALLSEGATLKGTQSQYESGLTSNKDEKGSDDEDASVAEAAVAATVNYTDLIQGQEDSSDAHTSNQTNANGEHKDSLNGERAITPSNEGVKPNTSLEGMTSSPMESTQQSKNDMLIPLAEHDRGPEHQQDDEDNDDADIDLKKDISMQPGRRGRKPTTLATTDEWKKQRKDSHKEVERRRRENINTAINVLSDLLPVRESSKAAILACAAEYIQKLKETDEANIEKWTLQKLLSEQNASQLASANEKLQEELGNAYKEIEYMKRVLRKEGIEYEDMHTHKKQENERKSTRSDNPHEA
Technique: protein-binding microarray
Molecule type: double-stranded DNA, one strand shown
Medium: in vitro
Concentration: 0.8 µM
Notes: whole 60-bp probe, no competitor
Direction: higher = stronger binding
`GAAAGTCAATTGATTAACGTGCTAATGTAGATTTAGGTCTTGATTCGCTTGACGCTGCTG` gave a fluorescence intensity of 560 a.u.
For `CTACAGTCGCTTTAATGCGTGATTATAGAAAAGTTCGTCTTGATTCGCTTGACGCTGCTG`, the fluorescence intensity was 673 a.u.
With `GAATAGAGATGAGCCGTCACCATGAATATAGCGTAGGTCTTGATTCGCTTGACGCTGCTG` the fluorescence intensity was 531 a.u.
`CTAGCGCACTATAGTCACATCTTATTATGTTAGTTCGTCTTGATTCGCTTGACGCTGCTG` has a fluorescence intensity of 532 a.u.

Sample 2
Target: PABPC1L2, full length, GST fusion (mouse, UniProt A0ABA7IW68)
Technique: RNAcompete
Molecule type: RNA
Medium: in vitro
Concentration: 20 nM
Notes: 7-mer, probes averaged, single round
Baseline: mean of 7-mers
Direction: higher = stronger binding
Residues (chain): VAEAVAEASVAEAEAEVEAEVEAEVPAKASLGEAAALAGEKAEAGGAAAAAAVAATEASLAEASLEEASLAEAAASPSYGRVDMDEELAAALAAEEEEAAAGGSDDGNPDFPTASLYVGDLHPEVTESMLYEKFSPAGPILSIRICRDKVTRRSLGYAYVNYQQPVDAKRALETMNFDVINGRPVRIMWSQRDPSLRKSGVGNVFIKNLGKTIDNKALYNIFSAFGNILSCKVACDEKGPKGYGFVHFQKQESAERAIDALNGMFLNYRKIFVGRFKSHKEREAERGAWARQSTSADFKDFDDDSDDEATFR
`CAUAUCA` has a 7-mer Z-score of -0.171.
`UAUGACC` gave a 7-mer Z-score of -0.0246.
With `GUAUAUA` the 7-mer Z-score was -0.00833.
With `CAUCUUA` the 7-mer Z-score was -0.324.
`AAACAAC` has a 7-mer Z-score of 3.
The 7-mer Z-score of `UAACGAU` is reported as -0.124.
For `CAUGGAG`, the 7-mer Z-score was 0.0587.
The 7-mer Z-score of `UGACUGA` is reported as -0.171.
`GACGAUU` has a 7-mer Z-score of -0.11.
The 7-mer Z-score of `CGCUUGC` is reported as -0.438.

Sample 3
Target: Histone acetyltransferase KAT6A, winged helix 2, GST fusion (KAT6A, Homo sapiens, UniProt Q92794, residues 85-181)
Technique: protein binding microarray
Molecule type: double-stranded DNA, one strand shown
Medium: in vitro
Concentration: not given
Notes: 8-mer, flanks averaged, mean of 2 arrays, mostly near background
Baseline: not given
Direction: higher = stronger binding
Construct (chain): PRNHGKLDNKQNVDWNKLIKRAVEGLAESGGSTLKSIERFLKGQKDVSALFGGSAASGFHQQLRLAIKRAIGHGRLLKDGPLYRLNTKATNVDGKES
For `AGTTGACG`, the E-score was -0.0532.
The E-score of `CCTCCTTA` is reported as -0.0129.
With `GCAGTAAA` the E-score was -0.0532.
The E-score of `GGGACACA` is reported as 0.0592.
The E-score of `ACAGCAAG` is reported as 0.0365.
With `ATCTCATC` the E-score was -0.192.
`AACGTTTA` gave an E-score of -0.189.
For `TATAATCA`, the E-score was 0.0599.

Single results of other studies
For `PhoQ, residues 284 288 289 292 302 303 NSMLDC`, the fold induction was 16.6 (PhoP, residues 12 14 15 18 19 GHCSL (Escherichia coli, UniProt P23836); Sort-seq, refers to: YFP reporter; E. coli; PhoQ-PhoP variant library, with: 10 µM Mg2+; baseline: high Mg2+ state, higher = stronger signaling).

Some of these lines once more (sample 1):
`GAAAGTCAATTGATTAACGTGCTAATGTAGATTTAGGTCTTGATTCGCTTGACGCTGCTG` gave a fluorescence intensity of 560 a.u.
With `GAATAGAGATGAGCCGTCACCATGAATATAGCGTAGGTCTTGATTCGCTTGACGCTGCTG` the fluorescence intensity was 531 a.u.
For `CTACAGTCGCTTTAATGCGTGATTATAGAAAAGTTCGTCTTGATTCGCTTGACGCTGCTG`, the fluorescence intensity was 673 a.u.
`CTAGCGCACTATAGTCACATCTTATTATGTTAGTTCGTCTTGATTCGCTTGACGCTGCTG` has a fluorescence intensity of 532 a.u.
